Assay results gathered from unrelated publications.
Numbered parts are unrelated; each lists some results of a single study.

Set 1 — technique: RNA Bind-n-Seq; molecule type: RNA; matrix: in vitro; concentration: 365 nM; baseline: no-protein control; reading: higher = stronger binding; measurement: RBNS enrichment (R)
Target: RNA binding protein fox-1 homolog 2, RRM domain, GST-SBP tag (RBFOX2, Homo sapiens, UniProt O43251-10, residues 100-194)
Setting: natural RNA segment, single round, ends assumed
Residues (chain): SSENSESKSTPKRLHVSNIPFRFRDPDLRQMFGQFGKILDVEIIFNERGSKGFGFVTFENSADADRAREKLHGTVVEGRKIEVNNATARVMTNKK
GGGAGUUCUACAGUCCGACGAUCUGUUUAGCCAAGUAGCUUUGGGCAUAGGCUGCCCAAUCUGAGCAAACACCAGUGAGGCUCUAUUGAGCCAAGACCAAGUCCUCAAAGCACCUGAACCACUGUGGCCUUCUUGGAAUUCUCGGGUGCCAA: 0.252
GGGAGUUCUACAGUCCGACGAUCAUGAUACAGAGUUAGCAGGUUUUUCUAAGGAAAUGCCAUUCAAAUGCCUCCUAACUUUUAUAGUUAUUUUGUUUUAUAUUUCUAAAUUCUUGUAUCAGAUCCAAAGCUCUUGGAAUUCUCGGGUGCCAA: 0.459
GGGAGUUCUACAGUCCGACGAUCUUUAUAAAUGUCAACUAUAUAAAAAAAGCUCAAAACAGUGUUAAAGGAAUGAACAGUAGAAUUUUAAUAGGCUGUCCAAAGAAGCCAGGUCUGCUGUGGGCAAGUAUAGCUGGAAUUCUCGGGUGCCAA: 0.414

Set 2 — technique: protein binding microarray; molecule type: double-stranded DNA, one strand shown; matrix: in vitro; concentration: not given; baseline: not given; reading: higher = stronger binding; measurement: E-score
Target: Histone acetyltransferase KAT6A, winged helix 2, GST fusion (KAT6A, Homo sapiens, UniProt Q92794, residues 85-181)
Setting: 8-mer, flanks averaged, mean of 2 arrays, mostly near background
Target sequence (chain): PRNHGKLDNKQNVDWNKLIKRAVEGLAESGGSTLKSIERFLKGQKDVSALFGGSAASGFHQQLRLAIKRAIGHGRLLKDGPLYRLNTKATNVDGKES
GCAAAGTA: 0.0098
CCAATGGA: 0.0781
ATGCTGTG: 0.105
CCCGATCA: 0.00304
GCCGACGC: 0.197
CAGCAAGG: -0.000815

Set 3 — technique: RNAcompete; molecule type: RNA; matrix: in vitro; concentration: 20 nM; setting: 7-mer, probes averaged, single round; baseline: mean of 7-mers; reading: higher = stronger binding; measurement: 7-mer Z-score
Target: PABPC1L2, full length, GST fusion (mouse, UniProt A0ABA7IW68)
Residues (chain): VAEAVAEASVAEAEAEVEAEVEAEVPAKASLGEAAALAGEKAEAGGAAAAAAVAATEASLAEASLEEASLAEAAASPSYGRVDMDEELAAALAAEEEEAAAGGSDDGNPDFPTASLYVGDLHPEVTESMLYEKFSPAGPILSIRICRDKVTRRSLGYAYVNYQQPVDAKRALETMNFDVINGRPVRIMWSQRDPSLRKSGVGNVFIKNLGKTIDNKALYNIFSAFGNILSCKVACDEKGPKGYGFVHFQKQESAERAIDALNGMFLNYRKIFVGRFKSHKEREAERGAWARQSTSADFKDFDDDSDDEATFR
CUUGGAU: -0.11
UUCAACC: -0.336
GCAGUCC: -0.19
AGGUACU: -0.141
GACUAUC: -0.277
CGAAACC: -0.139

Further values, each from its own experiment
PhoQ, residues 284 288 289 292 302 303 TVTVVA — fold induction (PhoP, residues 12 14 15 18 19 VHSCL (Escherichia coli, UniProt P23836); Sort-seq, refers to: YFP reporter; E. coli; PhoQ-PhoP variant library, added: 10 µM Mg2+; baseline: high Mg2+ state, higher = stronger signaling): 7.58

A few entries again (set 2):
GCCGACGC: 0.197
